Assay results collected from several papers.
Every numbered part comes from another study and shows a few of its results, in no order.

Sample 1 — technique: RNA Bind-n-Seq; molecule type: RNA; sample: in vitro; tested at: 365 nM; baseline: no-protein control; reading: higher = stronger binding
Target: RNA binding protein fox-1 homolog 2, RRM domain, GST-SBP tag (RBFOX2, Homo sapiens, UniProt O43251-10, residues 100-194)
Setting: natural RNA segment, single round, ends assumed
Residues (chain): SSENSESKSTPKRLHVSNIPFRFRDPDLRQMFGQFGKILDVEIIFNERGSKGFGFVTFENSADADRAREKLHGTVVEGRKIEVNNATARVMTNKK
`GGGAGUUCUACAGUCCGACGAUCUAUUCUGGGAAUGUAUAGUAUUUGAAAACAGAAAUUGGUACCUUGCACACAUCAUCUGUAAGCUGUUUGGUUUUAAAAUACUGUAGAUAAUUAACCAAGGUAGAAUGACCUGGAAUUCUCGGGUGCCAA` — result for “RBNS enrichment (R)”: 0.389.
`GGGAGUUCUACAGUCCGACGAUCUCUAAAUGUUCCCUCUGUUCAGCUUAGCAACCCUCCCCCCUUUGCUAUGUAACGCGAUCCCAUUUGCCUCUUGCUCCAUUGUGUGAUAAGCUAUGGGCUUGAAGAUGUUCUGGAAUUCUCGGGUGCCAA`: “RBNS enrichment (R)” 0.47.
`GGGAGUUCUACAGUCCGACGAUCUUUUCAGAGAGUGACCGAAUAGGAAGAAGGGAUUCAGAAAUAUGAUGUAGUAGAACAUGCCCUGCAGGAAGAAAAUGUUUUCUCUCCUGCGUAUGUUAAGAGGAAAUCAGUGGAAUUCUCGGGUGCCAA`: “RBNS enrichment (R)” 1.51.
`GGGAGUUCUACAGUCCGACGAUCCUUAGGUUUUUAGGAGUCUGAGCAUCCAUCAAUACCUGUACUAUGAUGGGCUUCUGUUCUCUGCUGAGGGCCAAUACCCUACUGUGGGGAGAGAUGGCACACCAGAUGCUUGGAAUUCUCGGGUGCCAA` — result for “RBNS enrichment (R)”: 0.251.
`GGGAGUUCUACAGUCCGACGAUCCCACAGUUAAUUCCCGGCAGAUUCUUUGGCUGUGUUUUAUCUUUAAUGAACGUUUCUGACUAAUAUUUUGUUGUAAACCAUUAAGUAAUGUAACGCAUGUAAGAUGCUUAUGGAAUUCUCGGGUGCCAA` — result for “RBNS enrichment (R)”: 1.54.
`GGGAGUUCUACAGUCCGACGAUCUACGGGCAGGCUCUAGCAACUUUCCGUGUAUGGACCUCGUUUUUUGCUGUUUUGUGUUUAAUUAGUAUAUUGUUCAUGCCUCUCUUCUGCAGUGUCUCAUCUCAUAGACUUGGAAUUCUCGGGUGCCAA` — result for “RBNS enrichment (R)”: 0.733.
`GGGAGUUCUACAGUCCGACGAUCGUAAUUGGUUUUUGAGAAACAUUAGUAUAAAGCUUGCCCUUGUUGUGUGGAAGAAGCCAUUUUGUACUGCUUUAAAGUUAGACUAAUAUUCUCAGCACGGGUGUAUGGGGUGGAAUUCUCGGGUGCCAA` — result for “RBNS enrichment (R)”: 9.95.
Under “RBNS enrichment (R)”, `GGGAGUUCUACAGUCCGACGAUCUUUUCUUACAUACCCAUCUUUUAACUUAGAGAUAGCAUUUUUUGCCCUCUUUAUUUUGUUGUUUGUUUCUCCAGAGAGUAAACGCUUUGUAGUUCUUUCUUUAAAAAACAUGGAAUUCUCGGGUGCCAA` is recorded as 0.397.

Sample 2 — technique: competition protein-binding microarray; molecule type: double-stranded DNA, one strand shown; sample: in vitro; tested at: 2 µM; with: Pho4 competitor, 0.05 µM; reading: higher = stronger binding
Target: Centromere-binding protein 1, full length, His-tagged (CBF1, Saccharomyces cerevisiae, UniProt P17106, residues 1-351)
Sequence of UniProt P17106 (whole entry, looked up): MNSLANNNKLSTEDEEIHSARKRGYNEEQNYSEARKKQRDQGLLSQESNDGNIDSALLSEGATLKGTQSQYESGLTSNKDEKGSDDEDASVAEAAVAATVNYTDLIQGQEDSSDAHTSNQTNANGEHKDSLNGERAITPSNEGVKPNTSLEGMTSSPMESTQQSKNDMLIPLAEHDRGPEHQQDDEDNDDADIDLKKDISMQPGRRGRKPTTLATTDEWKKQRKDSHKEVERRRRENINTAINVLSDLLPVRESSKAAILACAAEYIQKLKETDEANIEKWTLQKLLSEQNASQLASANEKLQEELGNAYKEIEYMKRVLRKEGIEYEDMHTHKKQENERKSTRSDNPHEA
Setting: whole 60-bp probe, lowest competitor level
With `CTACATATGTGCAAGCAGGTGACGCTTTACCCTTGAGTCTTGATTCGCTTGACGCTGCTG` the fluorescence intensity was 180 a.u.
The fluorescence intensity of `GCTTAACCGAATCCACACGGGTCTGCCATCTTCCATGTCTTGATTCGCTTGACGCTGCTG` is reported as 59.8 a.u.
The fluorescence intensity of `GACAAAAAAGCAGGGCACATGTCAAACTCTTGGAAAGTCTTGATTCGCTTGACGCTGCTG` is reported as 192 a.u.
`GTAACTGATGAGTACCATGTGTTTAACGATCTTGAGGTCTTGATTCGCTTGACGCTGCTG` gave a fluorescence intensity of 101 a.u.
With `CTTTCCCGATCTTGTAAAGTGGGTGTAGCACATTTGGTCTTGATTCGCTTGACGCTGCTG` the fluorescence intensity was 71.3 a.u.
For `GTCTTGTCTCATTGCCTGGTGGGTGTCCCCACTTCAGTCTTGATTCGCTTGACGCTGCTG`, the fluorescence intensity was 61.5 a.u.
The fluorescence intensity of `GATCAGTTTTCCACATCCGTGATGGGGCGCAAATTAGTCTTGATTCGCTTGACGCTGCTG` is reported as 212 a.u.
The fluorescence intensity of `GACTTATCGTCTGAAGTCGTGGGACAAATGGATGCCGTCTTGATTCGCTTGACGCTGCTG` is reported as 78.8 a.u.
`CAAATGATTTATACCCACGCAAAATGACATTGCAATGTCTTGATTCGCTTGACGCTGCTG` has a fluorescence intensity of 83.6 a.u.
For `TGCGCAACAACTTTTCACGTGGGGTTATGTCTAGAAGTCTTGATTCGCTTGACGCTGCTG`, the fluorescence intensity was 726 a.u.
With `AAAGCGGTAATTTGTTCCGTGGGTGCAGATATCTATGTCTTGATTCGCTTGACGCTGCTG` the fluorescence intensity was 71.8 a.u.
`TGTGAGGATTATTGTCATGTGAAGGCGAGATAGGTAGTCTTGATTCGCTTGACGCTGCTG` gave a fluorescence intensity of 267 a.u.
`TTCTCTTCCGATATGACCGTGCTTTTAGCTGTTAGCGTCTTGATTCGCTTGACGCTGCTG` gave a fluorescence intensity of 83.7 a.u.
For `TAGTTTGTCGCCCGTCACGTGCGATAATGCAAAATAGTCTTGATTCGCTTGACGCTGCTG`, the fluorescence intensity was 5280 a.u.
For `CTTCTGTAAATTTTTCACGTGCGGTGAAGCGCCCCGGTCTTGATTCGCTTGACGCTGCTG`, the fluorescence intensity was 813 a.u.
With `AAATTACTAAGTTGCCTCGTGGGTGACGCCGTATGAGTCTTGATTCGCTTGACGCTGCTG` the fluorescence intensity was 86.7 a.u.
For `CTTTCCCGATCTTGCGCCGTGGGTGTAGCACATTTGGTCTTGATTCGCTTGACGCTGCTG`, the fluorescence intensity was 90 a.u.
For `CCCTTTCCAACGCCCTACGTGCCAGGCCTCGACCGGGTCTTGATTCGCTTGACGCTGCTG`, the fluorescence intensity was 56.3 a.u.
The fluorescence intensity of `AACTCCTGTGGCAACTTCGTGATGGTGTTGATCTCCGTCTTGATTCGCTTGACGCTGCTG` is reported as 63.2 a.u.

Sample 3 — technique: RNA Bind-n-Seq; molecule type: RNA; sample: in vitro; tested at: not given; baseline: input RNA pool; reading: higher = stronger binding
Target: RING finger protein unkempt homolog, zinc fingers 1-6, GST-SBP tag (UNK, Homo sapiens, UniProt Q9C0B0, residues 30-357)
Setting: RNA with constant flanks, human and mouse sites, ends assumed
Residues (chain): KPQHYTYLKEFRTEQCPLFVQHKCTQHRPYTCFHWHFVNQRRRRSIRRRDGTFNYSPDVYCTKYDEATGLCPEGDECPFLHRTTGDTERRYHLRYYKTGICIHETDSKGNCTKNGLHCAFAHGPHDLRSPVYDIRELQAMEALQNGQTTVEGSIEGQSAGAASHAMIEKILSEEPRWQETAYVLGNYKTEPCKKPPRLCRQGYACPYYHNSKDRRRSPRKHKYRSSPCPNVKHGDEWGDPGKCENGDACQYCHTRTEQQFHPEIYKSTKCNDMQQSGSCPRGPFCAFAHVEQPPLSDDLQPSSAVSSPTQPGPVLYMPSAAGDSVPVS
For `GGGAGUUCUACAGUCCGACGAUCCAGGAGAACAGGCACUGUAAACCACAUCAUCAGUUUAAAGACUCGGAUUGUCACUAUUUAGAAGCAAGAUGCUUGAAUGAGAGAGAUUAUCGGGACCGGAGAUACAUUGAUGAAUACAGACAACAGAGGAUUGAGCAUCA`, the bound/input enrichment was 0.211 ratio.
`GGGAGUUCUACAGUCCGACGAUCAAAAGUGAAAUAACAUUAAAGGUGAAUGUGAGGCUUCUACUUUUAUCCAAAAGGAGCUAUAUUAGCUAGGCUGUUUCUGAUAUCCAAUCAUUGGUUUAACAAUAAAGGCAAUUUGUUUAACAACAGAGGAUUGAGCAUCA` gave a bound/input enrichment of 0.562 ratio.
`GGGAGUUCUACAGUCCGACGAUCAGUAUUAUUUAGUGAAUUAAUCUGACCGUACAGAAGAGUCAUGUUCUGACCUCAAUACUAUAGUAACUUUUAGGCUUGGAAAUAAAAGUUUGUUGGUAUCUACUGGCAAGUAUUUAAGUUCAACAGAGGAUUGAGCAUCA` has a bound/input enrichment of 1.61 ratio.
`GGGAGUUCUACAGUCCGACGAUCGUGUGCAAAAGCAAGAAGUCUUGGCAAGCGAGGCACACUGGUAUUAAGAUUGUACAACAGAUAGCCAUUCUCAUGGGCUGUGCUAUCUUGCCACAUCUCAGAAGUUUGGUUGAAAUCAUUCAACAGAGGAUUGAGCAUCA` has a bound/input enrichment of 0.0868 ratio.
`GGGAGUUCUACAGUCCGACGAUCGGACAUCAAUGCAAGCCUGAAGAAAAAGUAAUUGCUUCCUUUUAAGCCAUGGCCUAUCAGUUAUACAGAAAUACAACUUUGGGGAACAGUCUUCAAGAGAGCCUUGAUGAGCUCAUACAGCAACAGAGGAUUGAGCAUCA` has a bound/input enrichment of 0.249 ratio.
`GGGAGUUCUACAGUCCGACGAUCCCUGAAAAGAAAGGUGGCUUGAAGGAGCUGUUUGGAAAGGGCCCUCAAAACGCCUUCUUCCUCGUCAAAUUCUGGGCGGACUUAAACUGCAAUAUCCAAGACGACGCCGGGGCCUUUUAUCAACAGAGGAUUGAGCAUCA` gave a bound/input enrichment of 0.0871 ratio.
For `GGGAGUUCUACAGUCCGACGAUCACCAGCUAUGGUUUGCCACAAGCCAGGAGGAUAUCACUGGCCACUCCUCGACAGCUGUAUAAGUCUUCCAAUAUGACUCAGCGCUGGCAAAGAAGGGAAAUCUCCAACUUUGAGUAUUUGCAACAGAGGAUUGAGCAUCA`, the bound/input enrichment was 0.105 ratio.
The bound/input enrichment of `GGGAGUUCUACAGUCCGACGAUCCCUCUUUUCCAGUCUCAUGUUGAAGAUCUUUAUGUAGAAGGACUUCCUGAAGGAAUUCCUUUUAGAAGGCCAUCUACUUACGGAAUUCCUCGCCUGGAGAGGAUAUUACUUGCAAAGGAACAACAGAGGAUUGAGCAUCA` is reported as 0.178 ratio.

Sample 4 — technique: aptamer microarray, sandwich; molecule type: DNA with 2'F-ANA; sample: in vitro; tested at: 200 nM; with: Cy3 exosite-II aptamer, 400 nM; reading: higher = stronger binding; oligonucleotide: GGTTGGTGTGGTTGG
Target: Prothrombin, mature alpha-thrombin (F2, Homo sapiens, UniProt P00734)
Setting: whole 15-mer aptamer, many near background
`2'F-ANA at 1 6 7 10 13 15`: “mean fluorescence intensity” 50.5 a.u.
Under “mean fluorescence intensity”, `2'F-ANA at 1 2 3 5 8 11 12 14` is recorded as 46.9 a.u.
For `2'F-ANA at 5 6 7 8 10 11 13`, “mean fluorescence intensity” read 44.5 a.u.
Under “mean fluorescence intensity”, `2'F-ANA at 2 3 4 7 8 9 11 13 15` is recorded as 441 a.u.
Under “mean fluorescence intensity”, `2'F-ANA at 2 6 7 10 11 14 15` is recorded as 126 a.u.
Under “mean fluorescence intensity”, `2'F-ANA at 3 5 6 7 8 9 12` is recorded as 297 a.u.
`2'F-ANA at 1 2 4 6 7 8 13 14` — result for “mean fluorescence intensity”: 55.1 a.u.
Under “mean fluorescence intensity”, `2'F-ANA at 2 4 10 12 13 14` is recorded as 71.6 a.u.
`2'F-ANA at 3 5 6 7 11 12 14 15`: “mean fluorescence intensity” 65 a.u.
For `2'F-ANA at 3 4 5 6 10 11 13 14`, “mean fluorescence intensity” read 48.1 a.u.
`2'F-ANA at 1 4 6 7 8 11 12 13 15` — result for “mean fluorescence intensity”: 172 a.u.
Under “mean fluorescence intensity”, `2'F-ANA at 1 2 3 10 12 14` is recorded as 62 a.u.
`2'F-ANA at 2 5 6 8 10 14` — result for “mean fluorescence intensity”: 45.3 a.u.
`2'F-ANA at 2 5 6 7 8 9 11 12 13`: “mean fluorescence intensity” 106 a.u.
`2'F-ANA at 2 4 5 9 10 12 13 15` — result for “mean fluorescence intensity”: 67 a.u.
Under “mean fluorescence intensity”, `2'F-ANA at 2 4 7 9 12` is recorded as 648 a.u.
`2'F-ANA at 7 8 9 11 12 13 14` — result for “mean fluorescence intensity”: 209 a.u.
`2'F-ANA at 2 3 5 9 10 12 13 15`: “mean fluorescence intensity” 55.7 a.u.
`2'F-ANA at 1 2 5 6 7 8 10 11` — result for “mean fluorescence intensity”: 52 a.u.
Under “mean fluorescence intensity”, `2'F-ANA at 4 7 9 10 12 13 14` is recorded as 58.6 a.u.
`2'F-ANA at 2 4 5 6 7 8 9 13 15`: “mean fluorescence intensity” 53.1 a.u.
For `2'F-ANA at 1 3 4 7 8 14`, “mean fluorescence intensity” read 93.5 a.u.
`2'F-ANA at 1 2 6 7 12 14`: “mean fluorescence intensity” 61.1 a.u.
